Experimental data collected from several papers.
Every numbered part comes from another study and shows a few of its results, in no order. Positions count from the first letter of the parent shown.

Block 1
Target: CCNF, cyclin fold, Cln2 fusion (human)
Technique: yeast growth competition, sequencing
Sample: yeast
Notes: weak parent motif
Reference: not given
Direction: higher = stronger binding
Starting sequence: MASTL docking peptide (human); PMIAKNLMCELDE
`N6G` — result for “normalised enrichment score”: -0.73.
`M2W` — result for “normalised enrichment score”: -0.125.
Under “normalised enrichment score”, `E10R` is recorded as 0.458.
`C9G` — result for “normalised enrichment score”: -0.267.
`L7S`: “normalised enrichment score” -0.319.
Under “normalised enrichment score”, `I3G` is recorded as 0.193.
Under “normalised enrichment score”, `K5I` is recorded as -0.101.
For `M8P`, “normalised enrichment score” read -0.304.
Under “normalised enrichment score”, `L11I` is recorded as 0.369.
For `L11S`, “normalised enrichment score” read -0.219.
`A4I`: “normalised enrichment score” 0.242.
For `D12A`, “normalised enrichment score” read 0.144.
`L7C` — result for “normalised enrichment score”: -0.524.
For `K5T`, “normalised enrichment score” read -0.4.
`D12H`: “normalised enrichment score” 0.307.
`L11K` — result for “normalised enrichment score”: -0.347.
For `L11D`, “normalised enrichment score” read -0.627.
`D12G` — result for “normalised enrichment score”: 0.303.

Block 2
Target: ABI1, truncated, D143A, DHFR fusion (Arabidopsis thaliana)
Technique: DHFR PCA, deep sequencing
Sample: yeast
Notes: methotrexate growth selection, single substitutions
Added: (+)-ABA 200 µM
Reference: wild-type fitted maximum
Direction: higher = stronger binding
Starting sequence: PYL1, truncated, DHFR fusion (Arabidopsis thaliana); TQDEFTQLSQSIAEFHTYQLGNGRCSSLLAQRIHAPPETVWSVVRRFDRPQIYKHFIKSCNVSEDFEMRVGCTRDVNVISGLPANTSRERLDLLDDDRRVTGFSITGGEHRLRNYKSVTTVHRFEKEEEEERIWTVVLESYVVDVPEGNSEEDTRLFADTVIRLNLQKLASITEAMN; partner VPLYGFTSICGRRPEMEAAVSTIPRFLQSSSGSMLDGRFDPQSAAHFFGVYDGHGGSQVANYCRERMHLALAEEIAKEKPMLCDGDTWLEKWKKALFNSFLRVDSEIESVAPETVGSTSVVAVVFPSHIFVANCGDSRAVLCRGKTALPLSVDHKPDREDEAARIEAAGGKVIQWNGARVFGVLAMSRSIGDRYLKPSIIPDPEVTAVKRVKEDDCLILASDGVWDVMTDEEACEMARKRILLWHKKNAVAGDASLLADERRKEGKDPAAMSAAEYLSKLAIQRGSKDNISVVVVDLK
Under “relative binding score”, `C72K` is recorded as 85.3%.
Under “relative binding score”, `T101W` is recorded as 40.3%.
`P37R` — result for “relative binding score”: 51.7%.
For `L138K`, “relative binding score” read 13.1%.
Under “relative binding score”, `L28S` is recorded as 62.2%.
`V142L` — result for “relative binding score”: 85%.
For `L169M`, “relative binding score” read 56.6%.
`V100D` — result for “relative binding score”: -12.1%.
`S9L` — result for “relative binding score”: 78.5%.
Under “relative binding score”, `Y53G` is recorded as 34.8%.
`D159S` — result for “relative binding score”: 78.9%.
Under “relative binding score”, `W134N` is recorded as 97.1%.
`Q19F`: “relative binding score” 87.9%.
For `E139T`, “relative binding score” read 98.7%.
`N85Y` — result for “relative binding score”: 100%.
Under “relative binding score”, `W41K` is recorded as -36.3%.
Under “relative binding score”, `V143H` is recorded as 2.41%.
`E147P`: “relative binding score” 95.6%.
`I105F` — result for “relative binding score”: -6.26%.
`R32D`: “relative binding score” 84.3%.

Block 3
Target: Interferon regulatory factor 7, full length, phosphomimetic (IRF7, Homo sapiens, UniProt Q92985, residues 1-503, S471D/S472D/S475D/S476D/S477D/S483D/S484D/S487D)
Technique: protein-binding microarray
Molecule type: double-stranded DNA, one strand shown
Sample: in vitro
Tested at: 2200 nM top
Notes: 60-bp whole probe
Added: salmon DNA 0.4 mg/ml
Reference: random background probes
Direction: higher = stronger binding
All sequences stand within: GCCTAGCAC … GTCTTGATTCGCTTGACGCTGCTG
Construct (chain): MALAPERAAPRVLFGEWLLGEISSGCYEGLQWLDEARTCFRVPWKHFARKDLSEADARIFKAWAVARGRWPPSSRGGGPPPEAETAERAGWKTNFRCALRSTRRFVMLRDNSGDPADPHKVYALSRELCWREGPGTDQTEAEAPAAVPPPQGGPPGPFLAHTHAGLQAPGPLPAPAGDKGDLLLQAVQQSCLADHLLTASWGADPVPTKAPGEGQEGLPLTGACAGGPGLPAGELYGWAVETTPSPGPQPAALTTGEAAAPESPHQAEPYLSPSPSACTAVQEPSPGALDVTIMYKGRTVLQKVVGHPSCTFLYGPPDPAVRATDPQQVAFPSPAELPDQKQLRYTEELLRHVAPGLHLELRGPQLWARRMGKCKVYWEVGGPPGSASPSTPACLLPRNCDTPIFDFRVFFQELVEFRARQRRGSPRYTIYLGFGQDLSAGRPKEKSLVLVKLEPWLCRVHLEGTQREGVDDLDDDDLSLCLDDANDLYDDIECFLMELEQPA
`TTAGCACTGAGACTGGATTAGTGCTAG`: “fitted relative affinity” -0.275 z-score.
Under “fitted relative affinity”, `ATGACTCCCTCTCTGGCCAAGTGCTAG` is recorded as 1.1 z-score.
Under “fitted relative affinity”, `GACGGTTTCCTTAGCCTGACGTGCTAG` is recorded as 1.46 z-score.
`TTTCTTCTAGACTTCTCCATGTGCTAG` — result for “fitted relative affinity”: 2.41 z-score.
`GACGAACTGAGTACCGAGACGTGCTAG` — result for “fitted relative affinity”: -0.0399 z-score.
Under “fitted relative affinity”, `TTAGTTTTCGGGTTTCGGTTAGTGCTA` is recorded as 11.2 z-score.
`TCAGGACTGGGGACTGGGTTAGTGCTA` — result for “fitted relative affinity”: -1.12 z-score.
Under “fitted relative affinity”, `TTAGGACTGGGGACTGCGTTAGTGCTA` is recorded as -0.744 z-score.
`TCACCTCTTTCTTTGCTACTGTGCTAG` — result for “fitted relative affinity”: 2.37 z-score.
`TCAGAAATCTCAATGGGACTGTGCTAG`: “fitted relative affinity” -0.501 z-score.
`CTAAATATCTTTGTTGAAAAGTGCTAG`: “fitted relative affinity” -0.156 z-score.
For `TTAGGACCGGGTCTCGGTTAGTGCTAG`, “fitted relative affinity” read -0.345 z-score.
`TTAGGTTTCGGGACTGGGTTCGTGCTA`: “fitted relative affinity” 3.42 z-score.
`GACGGTATAGGGACTGGGGACGTGCTA`: “fitted relative affinity” -0.665 z-score.
For `TTAGGTCTCCTTCTCCTATAGTGCTAG`, “fitted relative affinity” read 1.2 z-score.
Under “fitted relative affinity”, `TTAGACATCGGGTTTCGATTAGTGCTA` is recorded as 2.41 z-score.
For `GACGGACTGGGACTGGGCACGTGCTAG`, “fitted relative affinity” read -1.11 z-score.
`ACTGAAATCACCCTTGGAAGTGTGCTA` — result for “fitted relative affinity”: 0.192 z-score.
For `GACGGTGCCCTTTTCCTGACGTGCTAG`, “fitted relative affinity” read 0.791 z-score.

Single results of other studies
`PhoQ, residues 284 288 289 292 302 303 GANMMA` has a fold induction of 1.09 (PhoP, residues 12 14 15 18 19 NQFFI (Escherichia coli, UniProt P23836); Sort-seq, refers to: YFP reporter; E. coli; PhoQ-PhoP variant library, added: 10 µM Mg2+; reference: high Mg2+ state, higher = stronger signaling).

Excerpt of the above (block 2):
For `L138K`, “relative binding score” read 13.1%.
Under “relative binding score”, `L28S` is recorded as 62.2%.
`V142L` — result for “relative binding score”: 85%.
For `L169M`, “relative binding score” read 56.6%.
`V100D` — result for “relative binding score”: -12.1%.
`S9L` — result for “relative binding score”: 78.5%.
Under “relative binding score”, `Y53G` is recorded as 34.8%.
`D159S` — result for “relative binding score”: 78.9%.
